Assay results from different studies.
Every numbered part comes from another study and shows a few of its results, in no order. Substitutions count along the parent as printed.

Set 1
Target: ABI1, truncated, D143A, DHFR fusion (Arabidopsis thaliana)
Method: DHFR PCA, deep sequencing
Matrix: yeast
Setting: methotrexate growth selection, single substitutions
Together with: (+)-ABA 17 µM
Baseline: wild-type fitted maximum
Reading: higher = stronger binding
Measurement: relative binding score
Starting sequence: PYL1, truncated, DHFR fusion (Arabidopsis thaliana); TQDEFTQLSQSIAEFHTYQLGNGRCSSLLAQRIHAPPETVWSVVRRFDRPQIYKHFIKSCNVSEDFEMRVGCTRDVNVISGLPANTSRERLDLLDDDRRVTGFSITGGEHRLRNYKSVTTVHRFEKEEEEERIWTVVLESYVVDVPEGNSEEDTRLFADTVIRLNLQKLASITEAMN
A30K: 87.3%
S63F: 47.9%
K168Y: 20.8%
L29H: 80.7%
T173Y: 5.87%
G71R: 7.25%
L138M: 62.6%
I12D: -8.82%
N177E: 69.6%
P146G: 32.5%
L169F: -8.27%
D159L: -6.77%
L156F: 71.8%
T17E: 57.4%
S9V: 67.5%
E128G: 101%
W134Y: 103%

Set 2
Target: Fragile X messenger ribonucleoprotein 1, C-terminal low-complexity region (Fmr1, Mus musculus, UniProt P35922)
Method: RNA Bind-n-Seq
Molecule type: RNA
Matrix: in vitro
Tested at: 200 nM
Setting: whole 134-nt RNA, ends assumed
Together with: 150 mM LiCl
Baseline: input library
Reading: higher = stronger binding
Measurement: log2 enrichment
Each molecule: 7-deaza-guanosine replaces G
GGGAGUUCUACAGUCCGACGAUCUCAAGUCCUGUGCUACACAUCGUAUGUACCGAAUCGGUUUGGAAAGGAAAAAGGAAAGUAUUAUGUUACGCCGUUCGGAUCUGCACUUCCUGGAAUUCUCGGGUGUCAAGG: -0.57
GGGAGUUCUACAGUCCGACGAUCCAAGUCCUGUGCUACACAUCGUAUGUACCGAAUCGGUGGAAAAAAAGGUUUUUGGAAAGUAUUAUGUUACGCCGUUCGGAUCUGCACUUCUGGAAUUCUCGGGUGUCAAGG: -2.01
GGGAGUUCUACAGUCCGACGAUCUCCUGUGCUACACAUCGUAUGUACCGAAUCGGGAAAAAAAGGAAAAAAAGGAAAAAAAGGAAAGUAUUAUGUUACGCCGUUCGGAUCUGCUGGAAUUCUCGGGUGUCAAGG: -0.342
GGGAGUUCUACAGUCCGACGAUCAAGUCCUGUGCUACACAUCGUAUGUACCGAAUCGGGAGGGUUUUUUUGGGAAAGGGAAAGUAUUAUGUUACGCCGUUCGGAUCUGCACUUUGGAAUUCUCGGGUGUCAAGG: -0.545
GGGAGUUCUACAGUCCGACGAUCGUCCUGUGCUACACAUCGUAUGUACCGAAUCGGGGCCCCCGGCCCCCGGGGCCCCCGGAAAGUAUUAUGUUACGCCGUUCGGAUCUGCACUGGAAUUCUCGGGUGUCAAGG: -2.92
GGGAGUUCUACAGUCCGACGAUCUGUUGAUGCUGUAAUUGCUGAACUUAAAAAGCAGUCUAAACCUGUGACCACCCCUGAAGAAAUUGCACAGGUAAGGACUUAACAUGUUACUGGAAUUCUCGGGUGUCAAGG: 0.565
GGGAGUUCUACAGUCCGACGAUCUGUUGGAGGGACGAUGGUCCGCUCCGGGCAGGACCCUUACGCCCGCAACAAGUUCAACCAGGUGGAGAGUGAUAAGCUUCGAAUGGACAGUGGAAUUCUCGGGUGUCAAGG: -3.63
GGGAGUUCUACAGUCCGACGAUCCUCAAGUCCUGUGCUACACAUCGUAUGUACCGAAUCGGAAAAAAAGGUGGAGGAAAGUAUUAUGUUACGCCGUUCGGAUCUGCACUUCCAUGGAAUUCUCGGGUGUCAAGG: -0.566
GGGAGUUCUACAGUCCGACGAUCCUGUGCUACACAUCGUAUGUACCGAAUCGGGGAAAGGGGAAAAAAAGGGGAAAAAAAGGGGAAAGUAUUAUGUUACGCCGUUCGGAUCUGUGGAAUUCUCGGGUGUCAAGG: 1.49
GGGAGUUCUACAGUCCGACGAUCUGCUUCAGACCAAGCGGAGCUCCCGGAGGCAAAGCCUGGAGCUGCAGAAGUGUGAAGAGAUCCUCCACAAGAUCGUGAAGUACCGCUUCAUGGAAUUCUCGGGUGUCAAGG: -3.33
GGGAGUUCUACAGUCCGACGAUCAAGUCCUGUGCUACACAUCGUAUGUACCGAAUCGGAAAAAAAGGUGGUUUUUUUGGAAAGUAUUAUGUUACGCCGUUCGGAUCUGCACUUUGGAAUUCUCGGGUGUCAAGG: -2.68

Set 3
Target: Histone acetyltransferase KAT6A, winged helix 1, GST fusion (KAT6A, Homo sapiens, UniProt Q92794, residues 1-85)
Method: protein binding microarray
Molecule type: double-stranded DNA, one strand shown
Matrix: in vitro
Tested at: not given
Setting: 8-mer, flanks averaged, mean of 2 arrays, mostly near background
Baseline: not given
Reading: higher = stronger binding
Measurement: E-score
Construct (chain): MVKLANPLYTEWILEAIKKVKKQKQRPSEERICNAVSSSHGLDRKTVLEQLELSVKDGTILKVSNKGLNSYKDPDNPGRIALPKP
GACGCCAC: 0.177
GCGGGGCA: 0.236
TGCGTGAA: 0.142
CCGACAAC: 0.0343
GCTGGCCC: 0.0641
ATTTGAAG: -0.00183
AGTAATCC: -0.118
AAAATGTA: -0.105
GTATCCGA: 0.14
ACGCCGAG: 0.304
ACCTATCT: -0.121
GAACAAAA: -0.107
ATCTGTAG: -0.0882
AGAGTCCG: 0.0377
CGGGGAAA: 0.168
GCCCGCTA: 0.319
AAGGGATG: -0.16
AAAAGGCG: 0.103
TAGATAAA: -0.168
AACATAAG: -0.0117
AAGAAAAA: -0.223
ACTGGTGG: -0.247
GTTCCGTA: 0.188
CGATATAC: 0.0696

Set 4
Target: human cyclin B2
Effect on: peptide binding
Method: yeast competitive growth sequencing
Molecule type: peptide
Organism: Saccharomyces cerevisiae
Strain: cyclin B2-Cln2 fusion
Tested at: concentration not given
Setting: peptide tiling library
Reading: direction not given
Measurement: binding enrichment score
GTPKRCLDLSNLSSGE: -0.0436
RRRRLLFWDKETQI: 0.501
TQERKQIHCLSEDELS: -0.671
RRRIKLPESDSSED: 0.777
ATNSSHTDAHEILVSD: 0.38
KVRRNLFNQELLSP: 0.221
SMTDFYHSKRRLIFSK: -0.119
DSGFCLDSPGPLDSKE: -1.15
KRRLDLETDHQY: 0.379
SPREGHMMDALYAQVK: 0.998
AGSAKRRLFGEDPPKE: 0.832
PKRAKRKLYTSEISSP: 0.282
SNFFDVIKQLFSDEKN: -0.877
NLEPNAEFDKRTEFIT: 0.494
NSMKELNFSHLPSNSV: 0.515
RKLDLEGIGR: 0.918
IPMIAKNLMCELDE: 0.793
KRNLLNEFDRII: 1.46
PPTFLSTGEIHAFLSS: 0.476
GPVKLEFDVSDGAT: -0.285
TTTTSPRTPPPLTVQD: -0.456
NESHLDKEHDAVEVAD: -0.258
HPESPPRKRLKSKGSD: 0.954
GFGFLLFICKLTF: -0.0308
ELGMEHCEKFEISETS: -0.541

Set 5
Target: Sal-like protein 4, full length isoform B (SALL4, Homo sapiens, UniProt Q9UJQ4-2, residues 1-616)
Method: universal PBM
Molecule type: double-stranded DNA, one strand shown
Matrix: in vitro
Tested at: not given
Setting: 8-mer, flanks averaged, mean of replicates
Reading: higher = stronger binding
Measurement: E-score
ATGTGAGA: 0.21
GCTGTCGA: -0.157
CGTCTTAA: -0.0207
CTATTCTC: -0.0678
AGAGATGC: -0.111
CATAAACA: 0.351
CCCTGGGC: -0.361
ACGATGAC: -0.0763
AATACAAG: 0.264
ACGACTTG: -0.0619
CCCTTGCG: -0.288
CATTAAAA: 0.305
CGCGAAAG: -0.205
TGGCGGAA: -0.161
ACAACCAG: -0.0407
AACGACGC: -0.0561
ATGGGCCA: -0.187
TACGACGA: -0.00298
GGCTTGAA: 0.0254
AATGATTG: 0.182
ACGAGCTG: -0.17
ATGTTTTC: 0.295
GCGTTGAC: -0.192
AGGTCCGC: -0.326
CTTTAAGA: 0.14

Excerpt of the above (set 1):
K168Y: 20.8%
L169F: -8.27%
T17E: 57.4%
N177E: 69.6%
G71R: 7.25%
D159L: -6.77%
A30K: 87.3%
T173Y: 5.87%
P146G: 32.5%
L138M: 62.6%
